{"data": "Assay results collected from several papers", "note": "Numbered parts are unrelated; each lists some results of a single study. Substitutions count along the parent as printed."}
{"data": "Set 1", "target": "CCNE1, cyclin fold, Cln2 fusion (human)", "technique": "yeast growth competition, sequencing", "sample": "yeast", "notes": "strong parent motif", "reference": "not given", "reading": "higher = stronger binding", "starting sequence": "viral docking peptide; PTARRRLLHDLDT; partner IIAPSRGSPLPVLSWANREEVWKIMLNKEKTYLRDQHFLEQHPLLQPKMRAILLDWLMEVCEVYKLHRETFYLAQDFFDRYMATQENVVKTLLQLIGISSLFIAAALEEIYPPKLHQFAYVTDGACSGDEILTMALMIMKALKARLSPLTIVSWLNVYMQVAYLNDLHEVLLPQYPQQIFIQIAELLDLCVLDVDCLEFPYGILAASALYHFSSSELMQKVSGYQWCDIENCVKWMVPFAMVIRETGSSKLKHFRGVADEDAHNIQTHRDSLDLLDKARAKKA"}
{"Variant": "L11A", "normalised enrichment score": 0.691}
{"Variant": "R5K H9F", "normalised enrichment score": 4.34}
{"Variant": "R5A", "normalised enrichment score": 0.0464}
{"Variant": "R4A", "normalised enrichment score": 0.0872}
{"Variant": "L8F", "normalised enrichment score": 6.78}
{"Variant": "T2A", "normalised enrichment score": 0.438}
{"Variant": "T13A", "normalised enrichment score": 1.12}
{"Variant": "L8A", "normalised enrichment score": -0.4}
{"data": "Set 2", "target": "Centromere-binding protein 1, full length, His-tagged (CBF1, Saccharomyces cerevisiae, UniProt P17106, residues 1-351)", "technique": "competition protein-binding microarray", "form": "double-stranded DNA, one strand shown", "sample": "in vitro", "tested at": "2 µM", "notes": "whole 60-bp probe, lowest competitor level", "together with": "Pho4 competitor, 0.05 µM", "reading": "higher = stronger binding", "all sequences stand within": "… GTCTTGATTCGCTTGACGCTGCTG", "sequence of UniProt P17106 (whole entry, looked up)": "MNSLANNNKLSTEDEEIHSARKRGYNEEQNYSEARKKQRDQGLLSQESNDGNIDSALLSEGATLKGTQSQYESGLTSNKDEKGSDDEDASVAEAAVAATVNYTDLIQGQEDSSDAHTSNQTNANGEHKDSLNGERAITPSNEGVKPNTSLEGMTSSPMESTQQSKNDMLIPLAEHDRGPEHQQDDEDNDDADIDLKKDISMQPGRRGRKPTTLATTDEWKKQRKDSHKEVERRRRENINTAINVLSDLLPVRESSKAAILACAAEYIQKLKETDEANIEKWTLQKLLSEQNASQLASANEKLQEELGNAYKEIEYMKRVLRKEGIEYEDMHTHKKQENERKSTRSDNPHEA"}
{"Oligonucleotide": "CTAACGAAGGTTTGCGTAGTGGGTGACAAGCCAAGT", "fluorescence intensity": "75.9 a.u."}
{"Oligonucleotide": "GTCAGAAAGCCGGGTAAGGTGTGCCAGCGCGAGTAA", "fluorescence intensity": "73.4 a.u."}
{"Oligonucleotide": "TGGATTAGTACTGTAGGCGTGCAAACTTTGTTCGCA", "fluorescence intensity": "92.6 a.u."}
{"Oligonucleotide": "CGTCCTAGCGATTGAACTGTGGGTGCCATGAGGAAG", "fluorescence intensity": "70.9 a.u."}
{"Oligonucleotide": "CGTCCTAGTGATTGTCACTTGACTTCCATGAGGAAG", "fluorescence intensity": "166 a.u."}
{"Oligonucleotide": "TGCGCAACAACTTGAATGGTGGGTGTATGTCTAGAA", "fluorescence intensity": "57.2 a.u."}
{"Oligonucleotide": "GACATATTACATTTCCTCGTGCTTTTCGAAGTATTT", "fluorescence intensity": "212 a.u."}
{"Oligonucleotide": "ATGAACCATGCCCAACACGATGTCGTTATTCACTCT", "fluorescence intensity": "84.8 a.u."}
{"data": "Set 3", "target": "vanadate, free oxyanion", "technique": "microfluidic competitive inhibition", "sample": "in vitro, cell-free expressed", "tested at": "not given", "notes": "derived from inhibition constants, unchanged parent 676 nM", "reading": "lower = stronger binding", "starting sequence": "PafA, mature enzyme, eGFP fusion (Elizabethkingia meningoseptica, UniProt Q9KJX5); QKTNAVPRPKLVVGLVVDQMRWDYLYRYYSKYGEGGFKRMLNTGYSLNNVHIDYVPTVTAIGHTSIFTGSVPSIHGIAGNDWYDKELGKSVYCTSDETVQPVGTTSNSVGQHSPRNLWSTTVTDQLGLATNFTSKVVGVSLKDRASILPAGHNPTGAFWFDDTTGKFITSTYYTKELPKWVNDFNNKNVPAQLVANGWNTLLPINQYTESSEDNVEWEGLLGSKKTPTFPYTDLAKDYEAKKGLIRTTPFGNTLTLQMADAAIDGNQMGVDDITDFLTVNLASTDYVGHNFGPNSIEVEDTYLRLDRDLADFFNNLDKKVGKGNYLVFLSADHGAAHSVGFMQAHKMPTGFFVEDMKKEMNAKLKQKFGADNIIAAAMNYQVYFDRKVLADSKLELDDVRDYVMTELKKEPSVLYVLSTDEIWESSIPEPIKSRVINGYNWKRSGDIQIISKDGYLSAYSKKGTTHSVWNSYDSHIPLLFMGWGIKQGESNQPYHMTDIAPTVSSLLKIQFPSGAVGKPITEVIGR"}
{"Variant": "T171V", "oxyanion analog dissociation constant [nM]": 626}
{"Variant": "R115G", "oxyanion analog dissociation constant [nM]": 892}
{"Variant": "F313G", "oxyanion analog dissociation constant [nM]": 561}
{"Variant": "H337V", "oxyanion analog dissociation constant [nM]": 714}
{"Variant": "V270A", "oxyanion analog dissociation constant [nM]": 716}
{"Variant": "N107V", "oxyanion analog dissociation constant [nM]": 755}
{"Variant": "Q510G", "oxyanion analog dissociation constant [nM]": 713}
{"data": "Set 4", "target": "UDP-N-acetylglucosamine--peptide N-acetylglucosaminyltransferase 110 kDa subunit (OGT, Homo sapiens, UniProt O15294)", "observed": "binding", "technique": "phage display NGS", "form": "peptide", "tested at": "concentration not given", "reference": "input library", "sequence of UniProt O15294 (whole entry, looked up)": "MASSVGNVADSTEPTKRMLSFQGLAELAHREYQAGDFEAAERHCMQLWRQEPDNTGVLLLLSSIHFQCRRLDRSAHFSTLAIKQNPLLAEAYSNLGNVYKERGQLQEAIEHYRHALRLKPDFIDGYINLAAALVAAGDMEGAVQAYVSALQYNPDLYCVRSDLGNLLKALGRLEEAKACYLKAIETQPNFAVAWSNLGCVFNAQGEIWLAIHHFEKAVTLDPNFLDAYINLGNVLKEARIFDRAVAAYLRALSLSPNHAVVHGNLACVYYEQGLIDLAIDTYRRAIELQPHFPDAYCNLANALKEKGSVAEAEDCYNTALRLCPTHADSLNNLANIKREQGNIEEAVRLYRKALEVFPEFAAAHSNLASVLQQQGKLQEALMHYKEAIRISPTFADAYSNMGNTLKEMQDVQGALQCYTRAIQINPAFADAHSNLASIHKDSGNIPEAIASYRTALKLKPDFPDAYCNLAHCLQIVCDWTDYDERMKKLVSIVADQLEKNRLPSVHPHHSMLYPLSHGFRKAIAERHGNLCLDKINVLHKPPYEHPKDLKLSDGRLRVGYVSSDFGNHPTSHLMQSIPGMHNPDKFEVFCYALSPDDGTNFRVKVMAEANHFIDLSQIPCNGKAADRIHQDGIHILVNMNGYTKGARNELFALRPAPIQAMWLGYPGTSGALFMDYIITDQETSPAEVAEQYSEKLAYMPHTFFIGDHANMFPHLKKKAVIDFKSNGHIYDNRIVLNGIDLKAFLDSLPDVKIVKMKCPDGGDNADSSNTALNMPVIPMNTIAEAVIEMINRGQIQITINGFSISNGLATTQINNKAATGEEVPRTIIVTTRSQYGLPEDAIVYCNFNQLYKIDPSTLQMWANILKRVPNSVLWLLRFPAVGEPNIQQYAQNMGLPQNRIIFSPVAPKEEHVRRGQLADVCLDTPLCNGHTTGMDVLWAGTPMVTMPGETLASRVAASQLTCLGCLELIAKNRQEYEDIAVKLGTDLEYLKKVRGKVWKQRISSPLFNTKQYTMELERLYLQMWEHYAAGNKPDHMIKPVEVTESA"}
{"Sequence": "SFPRHQHTYHTQPSR", "enrichment fold change": 5.24}
{"Sequence": "GISDGMYMPWYKIRT", "enrichment fold change": 2.27}
{"Sequence": "QFWPMVTHNAHITGG", "enrichment fold change": 3.04}
{"Sequence": "HFQIHQHHFMGDDD", "enrichment fold change": 9.62}
{"note": "Excerpt of the above (set 2):"}
{"Oligonucleotide": "GACATATTACATTTCCTCGTGCTTTTCGAAGTATTT", "fluorescence intensity": "212 a.u."}
